Results pooled from the literature.
Cell line: RAW264.7

SMILES | assay | setting | inhibition
COc1cccc(/C=C/C(=O)c2cccc3ccccc23)c1OC | IL-6 release, inhibitor, ELISA | 10 µM, LPS-stimulated | 89%
C/C=C(/NC(=O)CCCCCCC)C(=O)N/C(=C/C)C(=O)N[C@H](CC(C)C)C(=O)N[C@@H](CC(C)C)C(=O)Nc1ccc(C(=O)N[C@H](C(=O)O)[C@@H](C)O)cc1 | NO release, inhibitor, Griess | 5 µM, 24 h, LPS-stimulated | 28.3%
NS(=O)(=O)c1ccc(-n2cc(CNc3ccc(Cl)cc3)c(-c3ccc(OCc4ccccc4)cc3)n2)cc1 | ELISA, measured: TNF-alpha | 20 µM, added: LPS | 69.9%
CN(CCO)c1ccc(/C=C/C(=O)c2ccco2)cc1 | IL-6 release, inhibitor, ELISA | 10 µM, LPS-stimulated | 73 to 89%
CC(=O)O[C@@H]1CC[C@@]2(C)C(CC[C@]3(C)C2C(=O)C=C2C4[C@@H](C)[C@H](C)CC[C@]4(C)CC[C@]23C)[C@@]1(C)C(=O)OCC(=O)O[C@@H]1C[C@H](C)CC[C@H]1C(C)C (some centres unmarked) | NO release, inhibitor, Griess | 10 µM, 24 h, LPS-stimulated | 75.3%
CCN(CC)c1ccc(/C=C/C(=O)C(c2ccccc2)c2ccccc2)cc1 | IL-6 release, inhibitor, ELISA | 10 µM, LPS-stimulated | 89%
N#Cc1cccc(/C=C/C(=O)c2nc3cc(Cl)ccc3[nH]2)c1 | osteoclast formation, measured: TRAP-positive cells | 20 µg/mL, 72 h, added: RANKL | 42.2%
COc1cc(/C=N\NC(=O)[C@]2(C)C3CC[C@]4(C)C(C(=O)C=C5C6[C@@H](C)[C@H](C)CC[C@]6(C)CC[C@]54C)[C@@]3(C)CC[C@H]2OC(C)=O)cc(OC)c1OC (some centres unmarked) | NO release, inhibitor, Griess | 10 µM, 24 h, LPS-stimulated | 96.4%
Fc1ccc(NCc2cn(-c3ccccc3)nc2-c2ccc(OCc3ccccc3)cc2)cc1Cl | ELISA, measured: TNF-alpha | 20 µM, added: LPS | 75.5%
CC(=O)O[C@@H]1CC[C@@]2(C)C(CC[C@]3(C)C2C(=O)C=C2C4[C@@H](C)[C@H](C)CC[C@]4(C)CC[C@]23C)[C@@]1(C)c1nnc(SCC(=O)Oc2cc(C)ccc2C(C)C)o1 (some centres unmarked) | NO release, inhibitor, Griess | 10 µM, 24 h, LPS-stimulated | 85.2%
C/C=C(/NC(=O)CCCCCCC)C(=O)N/C(=C/C)C(=O)N[C@H](CC(C)C)C(=O)N[C@H](C(=O)Nc1ccc(C(=O)N[C@H](C(=O)O)[C@@H](C)O)cc1)[C@@H](C)CC | NO production, Griess | concentration not given, added: LPS | inhibited
